# Assay results collected from several papers.
# Each line is one published result; not all experiments were run side by side. ± gives the spread as reported.
Structure (SMILES),cell line,test,conditions,scale,quantity,value
N[C@@H](CCC(=O)N[C@@H](CS[Se]Cc1ccc(-c2cc(C(F)(F)F)nn2-c2ccc(S(N)(=O)=O)cc2)cc1)C(=O)NCC(=O)O)C(=O)O,melanoma cells,MTS,12.5 µM,relative to: DMSO vehicle,decrease in viability,40 to 60%
CCOP(=O)(CC(=O)Nc1ccc(S(=O)(=O)N(CC(N)=O)c2ccc(N(CC(N)=O)S(=O)(=O)c3ccc(OC)cc3)c3ccccc23)cc1)OCC,mouse primary cortical neurons,"western blot, item: PSD95","20 µM, together with: amyloid beta",,protein expression,increased
COc1ccc([C@@H]2CC(=O)c3c(O)cc(O[C@@H]4O[C@H](CO[C@@H]5O[C@@H](C)[C@H](O)[C@@H](O)[C@H]5O)[C@@H](O[C@H]5O[C@H](CO)[C@@H](O)[C@H](O)[C@H]5O)[C@H](O)[C@H]4O)cc3O2)cc1O,A549,"cell growth or viability, MTS","100 µg/mL, 72 h",,viability,44.1%
CCCCCCCCCCCCCCCC(=O)OCC(CSC[C@H](N)C(=O)N[C@@H](CO)C(=O)N[C@@H](CCCCN)C(=O)N[C@@H](CCCCN)C(=O)N[C@@H](CCCCN)C(=O)N[C@@H](CCCCN)C(=O)NCCCCCC(=O)N[C@@H](CCCCN)C(=O)N[C@@H](CC(C)C)C(=O)N[C@H](C(=O)N[C@@H](Cc1ccccc1)C(=O)N[C@@H](Cc1ccccc1)C(=O)N[C@@H](Cc1ccc2ccccc2c1)C(=O)O)C(C)C)OC(=O)CCCCCCCCCCCCCCC (stereo partly shown),BV-2,"western blot, item: MARCO","1.0 µM, 12 h",,protein level,increased
Oc1ccccc1-c1nn(-c2ccccn2)[n+](-c2ccccc2)n1.[Br-],A2780,LIVE/DEAD flow cytometry,"40 µM, 48 h",,dead cells,12%
COc1cccc2c1C(=O)c1c(O)c3c(c(O)c1C2=O)CC(O)(C(=O)CO)CC3OC1CC(NC(=O)CCC2=C(C)C(=O)C=C(C(C)C)C2=O)C(O)C(C)O1 (stereo not shown),Huntington disease fibroblasts,,"10 µM, 4 h",relative to: free doxorubicin,ROS production,decreased
CC/C=C\C/C=C\C/C=C\C/C=C\C/C=C\C/C=C\CCC(=O)Nc1ccn(C2OC(CO)C(O)C2(F)F)c(=O)n1 (stereo not shown),SNB-19,NCI60 screen,,,TGI,12.4 µM
COc1cc(CNC(=O)C[C@H](C)CCC=C(C)C)ccc1OCc1cn(-c2cccc(C(F)(F)F)c2)nn1,M14 melanoma cells,SRB,"10 µM, 48 h",,growth percent,92.1%
Cc1noc(NS(=O)(=O)c2ccc(NC(=O)c3ccnc(-c4cccc(Br)c4)c3)cc2)c1C,mouse spleen cells,"cell proliferation, MTT","10 µM, 72 h, together with: concanavalin A 5 µg/mL",,inhibition,22.7 ± 7.06%
CC(=O)OC[C@H]1O[C@@H](Sc2sc(C(=O)c3ccc(Br)cc3)c(N)c2-c2nc3ccccc3s2)[C@H](OC(C)=O)[C@@H](OC(C)=O)[C@H]1OC(C)=O,SF-268,SRB,"10 µM, 48 h",relative to: untreated,growth,93%
COc1cccc2c(NCc3ccccc3)nc(NCc3cccs3)nc12,SW-403,cell growth or viability,24 h,,GI50,0.5 µM
Cc1ccc2oc(=O)c(-c3nc4cnccc4[nH]3)cc2c1,endometrial stem cells,cell proliferation,,relative to: endometrial stem cells over HeLa,EC50 ratio,~70 fold
O=C(NN1C(=O)c2ccccc2NC1c1ccc([N+](=O)[O-])o1)c1ccc([N+](=O)[O-])cc1 (stereo not shown),LDR,"silenced GFP reporter derepression, microscopy",overnight,relative to: sodium butyrate,Emax,27%
O=C1OCC2=C1C(c1cccc(Br)c1)C1=C(N2)C(=O)c2ccccc2C1=O (stereo not shown),SK-LU-1 cells,PI flow cytometry,"0.08 µM, 24 h",,cells in G2/M phase,11.9%
CCCC(=O)N1CCN(c2ccc(NC(=O)c3ccc([N+](=O)[O-])o3)cc2Cl)CC1,LDR,"silenced GFP reporter derepression, microscopy",overnight,,EC50,1 µM
COc1cc(CNC(=O)C[C@H](C)CCC=C(C)C)ccc1OCc1cn(-c2ccccc2[N+](=O)[O-])nn1,M14 melanoma cells,SRB,"10 µM, 48 h",,growth percent,65.9%
CCCCCCCCCCCCCC(=O)N1CCC[C@H]1C(=O)N[C@@H](CO)C(=O)N[C@@H](CCC(N)=O)C(=O)N[C@@H](CO)C(=O)N[C@@H](CCCCNC(=O)c1ccc(Br)cc1)C(=O)N[C@@H](CO)C(=O)N[C@@H](CCCCNC(=O)c1ccc(Br)cc1)C(=O)N[C@@H](C)C(=O)O,AsPC-1,annexin V/PI staining,"50 µM, 48 h",,reduction in live cells,53%
N#Cc1cc(C(=O)OCC[18F])c(C(F)(F)F)nc1N1CCN(C(=O)Cc2ccccc2)CC1,C6 P2Y12-positive,,together with: excess clopidogrel,relative to: unblocked,cellular uptake,decreased
Cc1sc2c(c1C)C(c1ccc(Cl)cc1)=N[C@@H](CC(=O)N1CCN(CC3CCN(C(=O)CN4CCC(Nc5cccc6c5cc(C#CCNc5ccc(P(C)(C)=O)cc5)n6CC(F)(F)F)CC4)CC3)CC1)c1nnc(C)n1-2,BxPC-3,p53 reporter gene,"10 µM, 24 h",relative to: DMSO,reporter activity,40 fold
CC(C)c1cccc(C(C)C)c1N1CCN(c2c(C(C)C)cccc2C(C)C)C1=[Se].[Cl][Au],LoVo-OXP colon cancer cells,MTT,,relative to: LoVo-OXP over LoVo IC50,resistance factor,0.8
Cc1c2ccnc(C(=O)N[C@H](C)CN(C)C)c2cc2c3cc(OCCCN4CCN(C)CC4)ccc3n(C)c12,C9orf72 ALS iPSCs,qRT-PCR,"50 nM, together with: XRN1 or XRN2 siRNA",relative to: control siRNA,C9orf72 intron level,no effect
CC1=CCC23OC2(C)CCC2C(CN(C)C)C(=O)OC2C13.Cl (stereo not shown),C6 rat glioma cells,,"0.2 mg/mL, clonogenic",relative to: control,proliferation reduction,5 fold
C#CCN(CC(=O)O[C@H]1[C@H](C)O[C@@H](O[C@H]2[C@H](N(C)C)[C@@H](O)[C@H](O[C@H]3[C@@H](CC=O)C[C@@H](C)[C@@H](O[C@H]4CC[C@H](N(C)C)[C@@H](C)O4)/C=C/C=C/C[C@@H](C)OC(=O)C[C@@H](O)[C@@H]3OC)O[C@@H]2C)C[C@@]1(C)O)C(=O)c1ccc(C(F)(F)F)cc1,HGC-27,Western blot,"0.10, 0.45, 0.90 µM, 24 h",,cleaved caspase-3 level,increased
O=C(O)c1ccc(/C=C2\SC(=S)N(Cc3cccc(C(F)(F)F)c3)C2=O)cc1,mouse BMDM,,"concentration not given, together with: LPS",,"TNF-α, pro-IL-1β, NLRP3 expression",no effect
COc1ccc(CC2COC(=O)C2Cc2ccc3c(c2)OCO3)cc1OC (mixture of isomers),A2780,"western blot, item: CDK1","8.75 µM, 72 h",,protein level,decreased
CC(C)c1cccc(C(C)C)c1-n1c(Cl)c(Cl)n(-c2c(C(C)C)cccc2C(C)C)c1=[Se].[Cl][Ag],LoVo-OXP colon cancer cells,MTT,,relative to: LoVo-OXP over LoVo IC50,resistance factor,0.4
C1=[N+]2CCCC[N+]3=Cc4ccc5[n]4[Au-]23[n]2c1ccc2-c1nc2ccccc2nc1-5.F[P-](F)(F)(F)(F)F,NCI60 non-small cell lung lines,,,,GI50,6 µM
C(=N\Nc1nc(-c2ccccn2)nc2ccccc12)/c1ccccc1,LDR,"silenced GFP reporter derepression, microscopy",overnight,relative to: sodium butyrate,Emax,97%
COc1cc(CNC(=O)C[C@H](C)CCC=C(C)C)ccc1OCc1cn(-c2ccc(C#N)cc2)nn1,OVCAR-5 ovarian cancer cells,SRB,"10 µM, 48 h",,growth percent,98%
CC(C)(C)c1nc(-c2cccc(NS(=O)(=O)c3c(F)cccc3F)c2F)c(-c2ccnc(N)n2)s1.Cc1[nH]c2ccccc2c1CCNCc1ccc(/C=C/C(=O)NO)cc1,SK-MEL-28,flow cytometry,"concentration not given, 48 h, concentration about IC50",,cells in S phase,1.38%
C=CCOC(=O)C1C(C=O)=Cc2cc3c(cc2C1c1cc(OC)c(OC)c(OC)c1)OCO3 (stereo not shown),uninfected mouse splenocytes,,,relative to: splenocyte CC50 over amastigote EC50,selectivity index,> 3.3
CCCCCCCCN(CCC(=O)Nc1ccccc1)C(=O)c1ccccn1,progeroid mouse fibroblasts,"immunoblot, item: phospho-histone H2AX","2 µM, 14 d",,phospho-H2AX level,decreased
COc1ccc([C@@H]2CC(=O)c3c(O)cc(O[C@@H]4O[C@H](CO[C@@H]5O[C@@H](C)[C@H](O)[C@@H](O)[C@H]5O)[C@@H](O)[C@H](O)[C@H]4O)cc3O2)cc1O,A549,Matrigel Transwell invasion,"150 µg/mL, 48 h",,invasion,33.9 ± 4.82%
CCCCCCCCC1(CCCCCCCC)c2cc(C#Cc3cc4[n+]5c(c3)-c3cccc[n+]3[Ir-3]536([n+]5ccccc5-4)[n+]4ccccc4-c4cc(-c5ccccc5)cc([n+]43)-c3cccc[n+]36)ccc2-c2ccc(C#Cc3cc4[n+]5c(c3)-c3cccc[n+]3[Ir-3]536([n+]5ccccc5-4)[n+]4ccccc4-c4cc(-c5ccccc5)cc([n+]43)-c3cccc[n+]36)cc21.F[P-](F)(F)(F)(F)F.F[P-](F)(F)(F)(F)F.F[P-](F)(F)(F)(F)F.F[P-](F)(F)(F)(F)F.F[P-](F)(F)(F)(F)F.F[P-](F)(F)(F)(F)F,SK-MEL-28,,visible light 100 J/cm2,relative to: dark EC50 over visible-light EC50,phototherapeutic index,20
COc1cc(CNC(=O)C[C@H](C)CCC=C(C)C)ccc1OCc1cn(-c2cccc(Cl)c2)nn1,BT-549 breast cancer cells,SRB,"10 µM, 48 h",,growth percent,66.4%
CCCCCCCCCCCCCCOc1c(O)cc(C(=O)O[C@@H]2Cc3c(O)cc(O)cc3O[C@@H]2c2cc(O)c(O)c(O)c2)cc1O,A-431,"ERK phosphorylation, Western blot, item: phospho-ERK","25 µM, 24 h",,inhibition,> 90%
C[C@@H](O)[C@@H]1NC(=O)[C@H](CCCCN)NC(=O)[C@@H](Cc2ccc(NC(N)=O)cc2)NC(=O)[C@H](Cc2ccc(NC(=O)[C@@H]3CC(=O)NC(=O)N3)cc2)NC(=O)[C@H](NC(=O)[C@H](Cc2ccc(Cl)cc2)NC(=O)CN2CCN(CC(=O)O)CCN(CC(=O)O)CCN(CC(=O)O)CC2)CSSC[C@@H](C(=O)N[C@H](Cc2ccc(O)cc2)C(N)=O)NC1=O,AR-42J,radioligand uptake,"concentration not given, 2 h",,internalized fraction of cell activity,20.9 ± 0.59%
O=Cc1c(O)ccc2ccccc12,HUVEC,"RNA sequencing, item: E2F1","75 µM, 24 h",relative to: DMSO,log2 fold change,-3.48
CCCCN1C(=O)c2cccc3c(NCCCCCCCCN4CCOCC4)ccc(c23)C1=O,BHK-21,"confocal microscopy, item: endoplasmic reticulum colocalisation","0.2 µM, together with: 0.3 µM ER-Tracker Red",,Pearson's correlation coefficient,0.78 ± 0.03
CC(=O)Oc1ccccc1C(=O)[O][Pt]([NH2])([NH2])([Cl])([Cl])[O]C(=O)CCCc1ccccc1,HEK293 and PSN1,"cytotoxicity, MTT",,relative to: IC50 HEK293 over IC50 PSN1,selectivity index,1.2
COc1cc(CNC(=O)C[C@H](C)CCC=C(C)C)ccc1OCc1cn(-c2ccc(F)cc2)nn1,M14 melanoma cells,SRB,"10 µM, 48 h",,growth percent,102%
COc1nc(Nc2nc(O)c3ccccc3n2)nc2ccc(C)cc12,LDR,"silenced GFP reporter derepression, microscopy",overnight,relative to: sodium butyrate,Emax,39%
CC(C)=CCC1=C([O-])C(=O)c2ccccc2C1=O.O.O=[N+]([O-])[O-].[Cu+2].c1ccc(-c2cccc(-c3ccccn3)n2)nc1,MRC5 and A2780,MTT,24 h,relative to: IC50 MRC5 over IC50 A2780,selectivity index,6.2

# Repeated from above:
Structure (SMILES),cell line,test,conditions,scale,quantity,value
COc1ccc([C@@H]2CC(=O)c3c(O)cc(O[C@@H]4O[C@H](CO[C@@H]5O[C@@H](C)[C@H](O)[C@@H](O)[C@H]5O)[C@@H](O[C@H]5O[C@H](CO)[C@@H](O)[C@H](O)[C@H]5O)[C@H](O)[C@H]4O)cc3O2)cc1O,A549,"cell growth or viability, MTS","100 µg/mL, 72 h",,viability,44.1%
CCCCCCCCCCCCCCCC(=O)OCC(CSC[C@H](N)C(=O)N[C@@H](CO)C(=O)N[C@@H](CCCCN)C(=O)N[C@@H](CCCCN)C(=O)N[C@@H](CCCCN)C(=O)N[C@@H](CCCCN)C(=O)NCCCCCC(=O)N[C@@H](CCCCN)C(=O)N[C@@H](CC(C)C)C(=O)N[C@H](C(=O)N[C@@H](Cc1ccccc1)C(=O)N[C@@H](Cc1ccccc1)C(=O)N[C@@H](Cc1ccc2ccccc2c1)C(=O)O)C(C)C)OC(=O)CCCCCCCCCCCCCCC (stereo partly shown),BV-2,"western blot, item: MARCO","1.0 µM, 12 h",,protein level,increased
Oc1ccccc1-c1nn(-c2ccccn2)[n+](-c2ccccc2)n1.[Br-],A2780,LIVE/DEAD flow cytometry,"40 µM, 48 h",,dead cells,12%
